Earlier results, collected from citations in different studies.
Compare with care: the assays were run in different laboratories. “And” joins repeats or separate records; there may be more than shown. ± gives the spread as reported.
EGFR L858R/T790M: Epidermal growth factor receptor (EGFR, Homo sapiens, UniProt P00533, L858R/T790M)
gag-pol protease: Gag-Pol polyprotein, protease (gag-pol, Human immunodeficiency virus type 1 group M subtype B, UniProt P04585)
rib4: 6,7-dimethyl-8-ribityllumazine synthase (rib4, Schizosaccharomyces pombe, UniProt Q9UUB1)

| SMILES | target | test | system | conditions | Ki |
| --- | --- | --- | --- | --- | --- |
| C=CC(=O)N1CCC[C@@H](n2nc(-c3ccc4ccccc4c3)c3c(N)ncnc32)C1 | EGFR L858R/T790M |  |  |  | 1.5 ± 0.8 nM |
| COc1cc2c(cc1OC)CN(CCCCn1ccc3cc(OCC[18F])ccc31)C2 | Tmem97 (Rattus norvegicus, UniProt Q5U3Y7) | binding |  |  | 3.27 ± 0.19 nM |
| NS(=O)(=O)c1ccc(Nc2nc(-c3cc4cc(Cl)ccc4oc3=O)cs2)cc1 | carbonic anhydrase IX (human) | enzyme activity, inhibitor |  |  | 25 nM |
| C[C@H]1CN(C(=O)c2nc(Nc3cc(C4CC4)[nH]n3)c3cc(Cl)ccc3n2)CCN1 | PAK4 (Homo sapiens, UniProt O96013) |  |  |  | 9 nM |
| NS(=O)(=O)c1ccc(CCn2c(SCC(=O)N/N=C/c3ccccc3)nc3ccccc3c2=O)cc1 | CA9 (Homo sapiens, UniProt Q16790) |  |  |  | 61.7 nM |
| COCCOc1cc2ncnc(Nc3cccc(-c4cn(CC(=O)Nc5ccc(S(N)(=O)=O)cc5)nn4)c3)c2cc1OCCOC | Helicobacter pylori alpha-carbonic anhydrase | inhibitor, stopped-flow CO2 hydration |  |  | 56.3 nM |
| C=CC(=O)N1CCC[C@@H](n2nc(-c3cccc4ccccc34)c3c(N)ncnc32)C1 | EGFR L858R/T790M |  |  |  | 58 ± 3.3 nM |
| C[C@@H]1COCCN1c1nc(-c2cnc(N)nc2)nc2c1C[C@@H]1COCCN21 | PIK3CA (Homo sapiens, UniProt P42336) | binding, TR-FRET displacement |  |  | 536 ± 22 nM |
| O=c1[nH]cnc2c(CN[C@@H](CO)CCP(=O)(O)O)c[nH]c12 | Trypanosoma cruzi HGPRT | inhibitor |  |  | 500 ± 30 nM |
| CNC(=O)[C@@]12C[C@@H]1[C@@H](n1cnc3c(NCc4cccc(Cl)c4)nc(SC)nc31)[C@H](O)[C@@H]2O | adenosine A3 receptor |  |  |  | 1.5 nM |
| COCCOc1cc2ncnc(Nc3cccc(-c4cn(-c5ccccc5S(N)(=O)=O)nn4)c3)c2cc1OCCOC | Helicobacter pylori alpha-carbonic anhydrase | inhibitor, stopped-flow CO2 hydration |  |  | 252 nM |
| O=C(Cn1cc(CNC(=O)c2c3ccccc3nc3ccccc23)nn1)Nc1cccc(Br)c1 | MAL12 (Saccharomyces cerevisiae S288c, UniProt P53341) | inhibitor |  |  | 78000 nM |
| CCCCOC(=O)NS(=O)(=O)c1sc(CC(C)C)cc1-c1cccc(CN(Cc2cccs2)C(C)=O)c1 | angiotensin II type 2 receptor, pig |  | uterus membranes |  | 2.2 nM |
| OCCC1CCN(Cc2ccc(OCCCN3CCCCC3)cc2)CC1 | histamine H3 receptor (human) | binding |  |  | 1 nM |
| COc1ccccc1S | carbonic anhydrase II, human | inhibitor |  |  | 3200 ± 300 nM |
| O=C(/C=C/c1ccsc1)c1cc2ccccc2oc1=O | adenosine A3 receptor (human) |  |  |  | 5200 nM |
| C=CCC(=N)NCCC[C@H](N)C(=O)O | rat nNOS |  |  |  | 100 nM |
| C/C(=N\NC(=O)CSc1nc2ccccc2c(=O)n1CCc1ccc(S(N)(=O)=O)cc1)c1ccccc1 | CA12 (Homo sapiens, UniProt O43570) | enzyme activity, inhibitor |  |  | 12.7 nM |
| COc1cc2c(cc1OC)[C@@H]1C[C@H](O)[C@@H](CC(C)C)CN1CC2 | 5-HT7 receptor | binding |  |  | 0.023 µg/mL |
| O=C(O)c1cn(CB(O)O)nn1 | ADC-7 β-lactamase | inhibitor |  |  | 6100 nM and 6110 nM |
| O=C(CCN(Cc1ccccc1)Cc1ccccc1)NO | MEP1A (Homo sapiens, UniProt Q16819) | inhibitor |  |  | 1650 nM |
| Nc1nc2c([C@@H]3N[C@H](COP(=O)(O)O)[C@@H](O)[C@H]3O)c[nH]c2c(=O)[nH]1 | Trypanosoma cruzi HGPRT | inhibitor |  |  | 1100 ± 400 nM |
| CNC(=O)C(Cc1ccccc1)NC(=O)C(O)(Cc1ccccc1)CN(Cc1ccc(Br)cc1)NC(=O)C(NC(=O)OC)C(C)(C)C (stereo not shown) | gag-pol protease | inhibitor |  |  | 860 nM |
| COCCOc1cc2ncnc(Nc3cccc(-c4cn([C@H]5C[C@H](n6cc(C)c(=O)[nH]c6=O)O[C@@H]5CO)nn4)c3)c2cc1OCCOC | Helicobacter pylori alpha-carbonic anhydrase | inhibitor, stopped-flow CO2 hydration |  |  | 19.3 nM |
| Cc1cc(N)nc(CC2CNCC2OCCNCC(F)(F)c2cccc(F)c2)c1 (racemic) | Nos1 (Rattus norvegicus, UniProt P29476) |  |  | racemic mixture | 80 nM |

| SMILES | target | test | system | conditions | Ki |
| --- | --- | --- | --- | --- | --- |
| Cc1cc(N)nc(C[C@@H]2CNC[C@@H]2OCCNCCc2cccc(F)c2)c1 | Nitric oxide synthase 1 (Homo sapiens, UniProt P29475) |  |  |  | 70 nM |
| CCOC(=O)C(=O)Nc1c(NC[C@H](O)[C@H](O)[C@H](O)CO)[nH]c(=O)[nH]c1=O | rib4 | inhibitor |  | pH 7.0 | 1100 ± 200 nM |
| CC(=C(C#N)C#N)c1ccc2cc(N(C)CCF)ccc2c1 | amyloid beta fibrils | binding | in vitro generated fibrils |  | 42 nM |
| O=C(c1ccc(F)cc1)C1CCN(C2Cc3c(cccc3OCCF)CC2O)CC1 (single isomer, unassigned; (-)) | sigma-2 receptor | binding |  |  | > 10000 nM |
| COc1cc2nc(SC(C)C(=O)NCCc3ccc(S(N)(=O)=O)cc3)n(Cc3ccccc3)c(=O)c2cc1OC (stereo not shown) | carbonic anhydrase IX, human |  |  |  | 16.4 to 24.2 nM |
| CC(C)C(=O)Nc1c(NC[C@H](O)[C@H](O)[C@H](O)CO)[nH]c(=O)[nH]c1=O | rib4 | inhibitor |  | pH 7.0 | 7900 ± 800 nM |
| NS(=O)(=O)c1ccc(CCNC(=O)CSc2nc3ccc(I)cc3c(=O)n2Cc2ccccc2)cc1 | carbonic anhydrase XII, human |  |  |  | 5.2 to 8.9 nM |
| Nc1c(SC[C@H](O)[C@H](O)[C@H](O)CO)[nH]c(=O)[nH]c1=O | ribH (Mycobacterium tuberculosis, UniProt P9WHE9) | inhibitor |  | pH 7.0 | 31000 ± 11000 nM |
| Nc1ccc(-c2ccc3ccccc3n2)cc1 | amyloid beta fibrils | binding |  |  | > 5000 nM |
| COc1cc(C(=O)O)ccc1Cc1cn(C)c2ccc(NC(=O)OC3CCCC3)cc12 | CysLT1 receptor |  |  |  | 157 nM |
| NCCN1C(=O)c2cccc3cccc(c23)C1=O | HEXB (Homo sapiens, UniProt P07686) |  |  |  | 2080 nM |
| CCc1c(Cl)cccc1N1CCN(C[C@@H](F)CCNC(=O)c2cc3ccccc3[nH]2)CC1 | dopamine D3 receptor | binding |  |  | 0.84 ± 0.16 nM |
| O=c1[nH]c(NC[C@H](O)[C@H](O)[C@H](O)CO)c([N+](=O)[O-])c(=O)[nH]1 | Bacillus subtilis lumazine synthase | inhibitor | recombinant β60 capsid | pH 7.0, Tris·HCl buffer, added: 2 constant, 1 varied | 16000 ± 1000 nM |
| O=c1[nH]cnc2c(CNCCCP(=O)(O)O)c[nH]c12 | Plasmodium falciparum HGXPRT | inhibitor |  |  | 60 ± 3 nM |
| CCC(=O)NCCNC(=O)N=C(N)NCCC[C@@H](NC(=O)C(c1ccccc1)c1ccccc1)C(=O)NCc1ccc(O)cc1 | NPFF2R | binding |  |  | > 3000 nM |
| COc1cc2c(cc1OC)CN(CCCCn1ccc3c(OCCF)cccc31)CC2 | SIGMAR1 (Homo sapiens, UniProt Q99720) | binding |  |  | 1700 ± 548 nM |
| OCCNC(CO)CO | yeast alpha-glucosidase |  |  |  | 4000 nM and 4000 to 10000 nM |
| O=C(O)c1cc([N+](=O)[O-])ccc1NCCCc1ccccc1 | CFTR (Homo sapiens, UniProt P13569, E1371S) | pore block |  | -120 mV, no MOPS− | ~20000 nM |
| O=c1[nH]cnc2c(CNC(CO)COP(=O)(O)O)c[nH]c12 (racemic) | Trypanosoma cruzi HGPRT | inhibitor |  |  | 1100 ± 200 nM |
| CN(C)c1ccc(-c2cc3cc(I)ccc3o2)cn1 | amyloid-β aggregates | binding |  |  | 2.36 nM |
| O=c1[nH]cnc2c(CNCC(O)CP(=O)(O)O)c[nH]c12 (racemic) | Trypanosoma cruzi HGPRT | inhibitor |  |  | 170 ± 20 nM |
| O=c1[nH]c(SC[C@H](O)[C@H](O)[C@H](O)CO)c([N+](=O)[O-])c(=O)[nH]1 | rib4 | inhibitor |  | pH 7.0 | 2000 ± 200 nM |
| Nc1nc2c(CNCCCP(=O)(O)O)c[nH]c2c(=O)[nH]1 | Plasmodium falciparum HGXPRT | inhibitor |  |  | 110 ± 6 nM |
| COCCNC(=O)C(NC(=O)C(O)(Cc1ccccc1)CN(Cc1ccc(Br)cc1)NC(=O)C(NC(=O)OC)C(C)(C)C)C(C)C (stereo not shown) | gag-pol protease | inhibitor |  |  | 5.1 nM |

A few entries again:
| SMILES | target | test | system | conditions | Ki |
| --- | --- | --- | --- | --- | --- |
| O=C(Cn1cc(CNC(=O)c2c3ccccc3nc3ccccc23)nn1)Nc1cccc(Br)c1 | MAL12 (Saccharomyces cerevisiae S288c, UniProt P53341) | inhibitor |  |  | 78000 nM |
| CCC(=O)NCCNC(=O)N=C(N)NCCC[C@@H](NC(=O)C(c1ccccc1)c1ccccc1)C(=O)NCc1ccc(O)cc1 | NPFF2R | binding |  |  | > 3000 nM |
| OCCNC(CO)CO | yeast alpha-glucosidase |  |  |  | 4000 nM and 4000 to 10000 nM |
| CCc1c(Cl)cccc1N1CCN(C[C@@H](F)CCNC(=O)c2cc3ccccc3[nH]2)CC1 | dopamine D3 receptor | binding |  |  | 0.84 ± 0.16 nM |
